Assay results of several laboratories.
Parts stem from different laboratories: compare values within a part only.
UniProt O15294, sequence (whole entry, looked up): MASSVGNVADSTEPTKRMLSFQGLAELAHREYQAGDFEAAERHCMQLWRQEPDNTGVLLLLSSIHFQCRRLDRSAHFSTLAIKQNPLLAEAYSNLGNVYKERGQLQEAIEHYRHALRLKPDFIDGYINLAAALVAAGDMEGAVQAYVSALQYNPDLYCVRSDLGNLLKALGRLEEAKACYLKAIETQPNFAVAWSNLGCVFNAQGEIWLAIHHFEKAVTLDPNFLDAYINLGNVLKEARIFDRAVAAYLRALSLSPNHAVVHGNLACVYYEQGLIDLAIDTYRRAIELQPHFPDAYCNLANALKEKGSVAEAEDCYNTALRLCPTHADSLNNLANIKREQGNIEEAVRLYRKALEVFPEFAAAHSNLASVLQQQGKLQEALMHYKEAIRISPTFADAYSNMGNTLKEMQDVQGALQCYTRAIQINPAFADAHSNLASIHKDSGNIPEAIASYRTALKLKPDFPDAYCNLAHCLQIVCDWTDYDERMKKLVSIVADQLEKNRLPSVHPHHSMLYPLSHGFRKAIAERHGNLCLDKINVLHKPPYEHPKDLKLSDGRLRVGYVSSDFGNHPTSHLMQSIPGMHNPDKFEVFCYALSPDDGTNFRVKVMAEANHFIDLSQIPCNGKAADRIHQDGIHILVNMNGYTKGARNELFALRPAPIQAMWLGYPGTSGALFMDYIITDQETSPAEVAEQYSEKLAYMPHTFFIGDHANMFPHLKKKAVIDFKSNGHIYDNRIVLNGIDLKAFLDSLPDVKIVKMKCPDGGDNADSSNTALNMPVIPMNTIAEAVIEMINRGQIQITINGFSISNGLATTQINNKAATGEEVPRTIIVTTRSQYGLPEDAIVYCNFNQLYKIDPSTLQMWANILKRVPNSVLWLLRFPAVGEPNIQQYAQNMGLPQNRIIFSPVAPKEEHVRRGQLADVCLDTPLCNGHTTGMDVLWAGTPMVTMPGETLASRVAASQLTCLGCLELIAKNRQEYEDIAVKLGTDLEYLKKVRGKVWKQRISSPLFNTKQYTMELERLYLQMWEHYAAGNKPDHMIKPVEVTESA

Sample 1
Target: Sal-like protein 4, full length isoform B (SALL4, Homo sapiens, UniProt Q9UJQ4-2, residues 1-616)
Technique: universal PBM
Form: double-stranded DNA, one strand shown
Sample: in vitro
Tested at: not given
Notes: 8-mer, flanks averaged, mean of replicates
Reading: higher = stronger binding
Measurement: E-score
AACTCTTG: -0.0216
ATATCTAG: 0.257
CGTACGGC: -0.0859
AGGATTGG: -0.0293
TACATAGA: 0.272
AAACTTTG: 0.151
CGCTTTGA: -0.045
TCCAGAAA: 0.0871

Sample 2
Target: Interferon regulatory factor 7, full length, phosphomimetic (IRF7, Homo sapiens, UniProt Q92985, residues 1-503, S471D/S472D/S475D/S476D/S477D/S483D/S484D/S487D)
UniProt Q92985, sequence (whole entry, unmodified, looked up): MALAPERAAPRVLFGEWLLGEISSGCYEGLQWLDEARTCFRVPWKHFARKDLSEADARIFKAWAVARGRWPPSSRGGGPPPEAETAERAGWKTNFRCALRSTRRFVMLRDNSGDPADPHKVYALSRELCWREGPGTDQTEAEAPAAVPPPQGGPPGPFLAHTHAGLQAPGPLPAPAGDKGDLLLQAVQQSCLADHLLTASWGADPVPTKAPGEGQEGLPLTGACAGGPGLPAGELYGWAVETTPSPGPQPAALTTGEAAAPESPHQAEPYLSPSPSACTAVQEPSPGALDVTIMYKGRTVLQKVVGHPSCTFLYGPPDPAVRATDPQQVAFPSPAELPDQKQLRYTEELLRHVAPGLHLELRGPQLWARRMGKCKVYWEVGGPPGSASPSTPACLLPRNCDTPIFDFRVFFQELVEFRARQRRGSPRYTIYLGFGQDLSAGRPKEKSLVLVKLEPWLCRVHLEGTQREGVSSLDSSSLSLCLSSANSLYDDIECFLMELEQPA
Technique: protein-binding microarray
Form: double-stranded DNA, one strand shown
Sample: in vitro
Tested at: 2200 nM top
Notes: 60-bp whole probe
Together with: salmon DNA 0.4 mg/ml
Baseline: random background probes
Reading: higher = stronger binding
Measurement: fitted relative affinity
Shared flanks, not repeated: GCCTAGCAC … GTCTTGATTCGCTTGACGCTGCTG
TTAGGTATCGGTATCGCTTAGTGCTAG: 0.833 z-score
CACGAACTGAGTTTCGAGACGTGCTAG: 2.4 z-score
TTAGATATCGGGTTTCGAGTAGTGCTA: 1.71 z-score
TCAGTCACCCATCTCAGACTGTGCTAG: 0.901 z-score
TTAGATTTCAGTATCGATCAGTGCTAG: 0.66 z-score
TAGATATTATATCTGTGTTAGTGCTAG: 0.177 z-score
TTAGATATCGGGACTGCATTAGTGCTA: -0.165 z-score
TCAATTCCTGATCTCTGACTGTGCTAG: 1.31 z-score

Sample 3
Target: Centromere-binding protein 1, full length, His-tagged (CBF1, Saccharomyces cerevisiae, UniProt P17106, residues 1-351)
UniProt P17106, sequence (whole entry, looked up): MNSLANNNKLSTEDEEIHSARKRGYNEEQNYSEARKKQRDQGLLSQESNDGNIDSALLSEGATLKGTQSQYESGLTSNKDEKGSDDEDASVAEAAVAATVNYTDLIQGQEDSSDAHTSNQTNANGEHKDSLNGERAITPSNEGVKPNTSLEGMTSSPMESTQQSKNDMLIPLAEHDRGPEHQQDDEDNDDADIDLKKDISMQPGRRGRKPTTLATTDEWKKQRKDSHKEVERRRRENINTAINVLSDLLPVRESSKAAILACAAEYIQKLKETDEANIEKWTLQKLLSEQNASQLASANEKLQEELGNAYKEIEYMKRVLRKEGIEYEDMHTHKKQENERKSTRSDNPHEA
Technique: competition protein-binding microarray
Form: double-stranded DNA, one strand shown
Sample: in vitro
Tested at: 2 µM
Notes: whole 60-bp probe, lowest competitor level
Together with: Pho4 competitor, 0.05 µM
Reading: higher = stronger binding
Measurement: fluorescence intensity
GTGTATCTTTTCTTTGCTAATTATACGCTGACATGAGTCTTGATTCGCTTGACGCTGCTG: 81.8 a.u.
CGGCTGGGTCGGGCCCACGTGGACCCGGCGGCAAGCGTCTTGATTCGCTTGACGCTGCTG: 437 a.u.
CTTTCCCGATCTTGACGTGTGGGTGTAGCACATTTGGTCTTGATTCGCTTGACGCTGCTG: 81.4 a.u.
AGAGACAATTGTTGCCTCGTGGCCGGGCTATTTACAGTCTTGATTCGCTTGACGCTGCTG: 106 a.u.
AGGTGCTGCAACAAAAGCAAGTCCCACTGGACCTTTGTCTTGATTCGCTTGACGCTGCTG: 59.5 a.u.
TGCGCAACAACTTGTCGGGTGGGTGTATGTCTAGAAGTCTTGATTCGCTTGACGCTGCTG: 98.8 a.u.
CAATCTGGTGGGGGCACCGTGAATATCACCGTCGTCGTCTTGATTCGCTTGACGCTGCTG: 113 a.u.
CATACCCAACCTTGCGTCGTGGGTGAAGATATTTGTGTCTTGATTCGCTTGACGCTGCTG: 58.2 a.u.

Single results of other studies
HSSDIPEHRHHEHIR  enrichment fold change (UDP-N-acetylglucosamine--peptide N-acetylglucosaminyltransferase 110 kDa subunit (OGT, Homo sapiens, UniProt O15294); binding, phage display NGS; peptide; concentration not given; baseline: input library): 11.2

Excerpt of the above (sample 1):
AGGATTGG: -0.0293
TACATAGA: 0.272
AAACTTTG: 0.151
CGCTTTGA: -0.045
